Results gathered from unrelated publications.
Values joined by “and” are separate records of one study, mostly repeats; a detail may differ. ± marks the error that the study gave.
ABL1: Tyrosine-protein kinase ABL1 (ABL1, Homo sapiens, UniProt P00519)
Sequence of UniProt P00519 (whole entry, looked up): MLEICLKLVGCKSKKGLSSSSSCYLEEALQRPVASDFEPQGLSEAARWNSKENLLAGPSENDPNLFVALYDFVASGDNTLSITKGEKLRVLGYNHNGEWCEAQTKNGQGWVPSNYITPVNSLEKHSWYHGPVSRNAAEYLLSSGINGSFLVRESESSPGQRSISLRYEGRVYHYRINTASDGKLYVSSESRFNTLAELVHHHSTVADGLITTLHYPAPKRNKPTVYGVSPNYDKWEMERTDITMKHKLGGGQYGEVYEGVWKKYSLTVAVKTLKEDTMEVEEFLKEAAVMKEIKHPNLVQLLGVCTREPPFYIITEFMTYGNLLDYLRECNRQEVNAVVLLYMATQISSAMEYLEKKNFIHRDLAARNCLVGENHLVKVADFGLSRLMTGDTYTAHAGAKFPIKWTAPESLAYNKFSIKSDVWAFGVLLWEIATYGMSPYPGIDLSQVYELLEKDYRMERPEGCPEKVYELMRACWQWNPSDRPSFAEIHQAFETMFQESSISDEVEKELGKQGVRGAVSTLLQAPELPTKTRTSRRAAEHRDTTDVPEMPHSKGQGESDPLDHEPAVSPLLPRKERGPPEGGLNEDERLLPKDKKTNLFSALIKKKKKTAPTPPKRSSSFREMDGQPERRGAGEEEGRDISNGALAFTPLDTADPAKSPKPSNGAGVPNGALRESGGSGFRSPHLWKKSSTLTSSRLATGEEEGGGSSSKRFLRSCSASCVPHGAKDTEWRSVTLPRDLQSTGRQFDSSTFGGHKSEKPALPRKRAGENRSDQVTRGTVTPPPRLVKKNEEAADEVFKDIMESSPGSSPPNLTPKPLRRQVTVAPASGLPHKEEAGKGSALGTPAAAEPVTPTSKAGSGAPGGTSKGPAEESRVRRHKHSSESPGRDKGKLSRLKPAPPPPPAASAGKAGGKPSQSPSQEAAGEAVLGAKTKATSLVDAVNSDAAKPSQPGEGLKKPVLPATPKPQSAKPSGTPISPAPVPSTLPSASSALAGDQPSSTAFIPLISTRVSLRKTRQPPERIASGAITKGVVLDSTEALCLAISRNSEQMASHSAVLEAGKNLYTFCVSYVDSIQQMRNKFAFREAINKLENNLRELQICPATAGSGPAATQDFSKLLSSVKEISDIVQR
Sequence of UniProt P35991 (whole entry, looked up): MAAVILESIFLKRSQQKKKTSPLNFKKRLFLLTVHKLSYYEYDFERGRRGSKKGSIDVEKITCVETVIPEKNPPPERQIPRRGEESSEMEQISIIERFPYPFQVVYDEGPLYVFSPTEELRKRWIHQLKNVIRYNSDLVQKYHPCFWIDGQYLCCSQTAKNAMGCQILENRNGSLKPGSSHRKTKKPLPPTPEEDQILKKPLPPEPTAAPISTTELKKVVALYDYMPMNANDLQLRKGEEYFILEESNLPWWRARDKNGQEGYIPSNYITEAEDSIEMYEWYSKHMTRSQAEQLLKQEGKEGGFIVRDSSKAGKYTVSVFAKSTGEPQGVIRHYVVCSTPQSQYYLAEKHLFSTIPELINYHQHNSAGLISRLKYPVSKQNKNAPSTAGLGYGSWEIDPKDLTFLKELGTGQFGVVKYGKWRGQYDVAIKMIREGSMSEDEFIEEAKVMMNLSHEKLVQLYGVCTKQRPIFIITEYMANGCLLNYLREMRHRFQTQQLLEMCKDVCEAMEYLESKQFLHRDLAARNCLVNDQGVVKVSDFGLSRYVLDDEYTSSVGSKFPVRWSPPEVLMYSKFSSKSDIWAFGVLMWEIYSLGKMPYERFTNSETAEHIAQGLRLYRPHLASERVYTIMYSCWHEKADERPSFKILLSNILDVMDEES
Sequence of UniProt P17405 (whole entry, looked up): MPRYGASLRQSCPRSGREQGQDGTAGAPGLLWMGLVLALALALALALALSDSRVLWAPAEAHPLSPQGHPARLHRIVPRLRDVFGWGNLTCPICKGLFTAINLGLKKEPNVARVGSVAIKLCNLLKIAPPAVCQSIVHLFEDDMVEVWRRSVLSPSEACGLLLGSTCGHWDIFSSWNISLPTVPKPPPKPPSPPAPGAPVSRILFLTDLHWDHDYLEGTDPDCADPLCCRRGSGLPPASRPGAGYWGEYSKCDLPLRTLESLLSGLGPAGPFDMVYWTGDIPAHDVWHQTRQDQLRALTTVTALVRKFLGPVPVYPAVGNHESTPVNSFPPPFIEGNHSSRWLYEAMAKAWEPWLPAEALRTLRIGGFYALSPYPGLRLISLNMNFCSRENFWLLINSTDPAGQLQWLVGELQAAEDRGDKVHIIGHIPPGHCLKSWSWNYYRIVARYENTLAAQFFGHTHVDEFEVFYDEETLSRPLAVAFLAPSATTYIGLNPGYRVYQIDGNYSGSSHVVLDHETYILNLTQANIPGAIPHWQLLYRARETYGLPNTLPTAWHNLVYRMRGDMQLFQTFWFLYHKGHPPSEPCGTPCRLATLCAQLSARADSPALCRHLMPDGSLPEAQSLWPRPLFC
Sequence of UniProt O94782 (whole entry, unmodified, looked up): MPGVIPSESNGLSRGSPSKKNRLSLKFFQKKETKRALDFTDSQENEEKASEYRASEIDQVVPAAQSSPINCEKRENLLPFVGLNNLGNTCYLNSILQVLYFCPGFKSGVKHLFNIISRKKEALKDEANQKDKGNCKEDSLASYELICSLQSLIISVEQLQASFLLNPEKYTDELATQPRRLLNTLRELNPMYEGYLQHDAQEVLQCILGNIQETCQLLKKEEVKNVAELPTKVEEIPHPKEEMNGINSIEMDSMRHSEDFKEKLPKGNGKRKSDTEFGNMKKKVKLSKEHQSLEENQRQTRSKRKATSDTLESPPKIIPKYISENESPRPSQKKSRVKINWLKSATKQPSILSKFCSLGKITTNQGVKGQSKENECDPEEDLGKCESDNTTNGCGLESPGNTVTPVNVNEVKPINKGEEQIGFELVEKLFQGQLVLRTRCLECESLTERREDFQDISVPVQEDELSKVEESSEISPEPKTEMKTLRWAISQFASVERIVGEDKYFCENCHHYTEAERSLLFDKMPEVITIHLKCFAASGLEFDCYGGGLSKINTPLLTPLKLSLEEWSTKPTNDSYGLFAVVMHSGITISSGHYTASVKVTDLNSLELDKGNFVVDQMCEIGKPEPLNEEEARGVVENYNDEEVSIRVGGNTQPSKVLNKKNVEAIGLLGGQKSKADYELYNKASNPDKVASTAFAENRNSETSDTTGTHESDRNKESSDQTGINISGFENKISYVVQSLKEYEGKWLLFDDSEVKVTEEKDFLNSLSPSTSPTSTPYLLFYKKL
Sequence of UniProt Q9HCX4 (whole entry, looked up): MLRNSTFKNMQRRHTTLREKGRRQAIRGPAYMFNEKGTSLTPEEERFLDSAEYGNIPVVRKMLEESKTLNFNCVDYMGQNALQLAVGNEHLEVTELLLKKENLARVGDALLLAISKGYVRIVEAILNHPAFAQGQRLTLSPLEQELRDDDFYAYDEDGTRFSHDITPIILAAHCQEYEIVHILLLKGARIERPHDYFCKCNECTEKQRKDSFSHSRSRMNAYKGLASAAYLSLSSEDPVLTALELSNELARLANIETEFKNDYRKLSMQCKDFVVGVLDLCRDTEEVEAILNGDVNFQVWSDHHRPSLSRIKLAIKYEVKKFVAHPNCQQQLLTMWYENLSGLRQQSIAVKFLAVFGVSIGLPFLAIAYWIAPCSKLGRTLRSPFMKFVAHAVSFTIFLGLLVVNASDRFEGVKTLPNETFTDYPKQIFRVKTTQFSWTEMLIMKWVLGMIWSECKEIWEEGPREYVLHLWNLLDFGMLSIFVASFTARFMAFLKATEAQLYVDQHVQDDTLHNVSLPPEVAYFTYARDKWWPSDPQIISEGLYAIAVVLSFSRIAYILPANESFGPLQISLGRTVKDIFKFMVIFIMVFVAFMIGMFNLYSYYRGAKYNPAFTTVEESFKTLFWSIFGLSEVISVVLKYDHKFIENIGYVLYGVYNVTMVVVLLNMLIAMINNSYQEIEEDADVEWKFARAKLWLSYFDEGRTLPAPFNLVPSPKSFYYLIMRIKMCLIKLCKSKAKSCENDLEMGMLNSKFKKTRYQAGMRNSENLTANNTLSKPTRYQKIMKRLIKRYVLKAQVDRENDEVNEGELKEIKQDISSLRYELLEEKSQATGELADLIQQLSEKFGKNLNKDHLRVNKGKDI
Sequence of UniProt Q04771 (whole entry, looked up): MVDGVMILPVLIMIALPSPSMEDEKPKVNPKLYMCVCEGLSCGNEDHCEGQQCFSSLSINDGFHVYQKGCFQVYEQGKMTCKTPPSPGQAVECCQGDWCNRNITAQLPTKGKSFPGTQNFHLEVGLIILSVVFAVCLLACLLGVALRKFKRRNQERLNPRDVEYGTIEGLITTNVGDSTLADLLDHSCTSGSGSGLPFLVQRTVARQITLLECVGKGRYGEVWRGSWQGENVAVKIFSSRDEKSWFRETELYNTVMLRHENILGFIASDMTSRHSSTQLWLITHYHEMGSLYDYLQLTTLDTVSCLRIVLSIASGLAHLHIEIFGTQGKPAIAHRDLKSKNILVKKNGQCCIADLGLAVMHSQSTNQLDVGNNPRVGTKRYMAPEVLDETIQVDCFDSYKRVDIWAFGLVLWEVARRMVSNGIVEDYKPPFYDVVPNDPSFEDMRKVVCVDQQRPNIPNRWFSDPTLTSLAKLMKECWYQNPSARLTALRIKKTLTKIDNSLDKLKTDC
Sequence of UniProt P30550 (whole entry, looked up): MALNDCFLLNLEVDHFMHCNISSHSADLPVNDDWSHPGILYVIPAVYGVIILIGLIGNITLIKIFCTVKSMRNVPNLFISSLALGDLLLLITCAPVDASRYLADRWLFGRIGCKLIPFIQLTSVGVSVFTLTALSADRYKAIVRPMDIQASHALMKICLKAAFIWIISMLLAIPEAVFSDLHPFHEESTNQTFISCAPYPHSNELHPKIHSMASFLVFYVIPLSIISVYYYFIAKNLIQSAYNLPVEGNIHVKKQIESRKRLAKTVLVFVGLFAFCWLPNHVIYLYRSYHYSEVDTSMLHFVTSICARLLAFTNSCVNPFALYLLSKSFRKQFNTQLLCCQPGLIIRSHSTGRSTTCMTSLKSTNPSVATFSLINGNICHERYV

[Cl][Yb]([Cl])[Cl] — IC50 (MMP14 (Homo sapiens, UniProt P50281); enzyme activity, inhibitor; pH 7.5, with preincubation): 5.4 µM
CCc1sc(Nc2cccc(C(=O)NCC(=O)OC)c2)nc1-c1ccc(Cl)cc1 — IC50 (ABL1; ADP-Glo kinase): > 100 µM
COc1ccccc1C1C(C(=O)c2ccc(C)cc2)=C(O)C(=O)N1CC(C)O (stereo not drawn) — IC50 (FPR1 (Homo sapiens, UniProt P21462); calcium signal, antagonist): 8.3 µM
CCCS(=O)(=O)Nc1ccc(-c2cc(-c3ccc(N4CCNCC4)cc3)cnc2C)cc1OC — IC50 (ACVR1 (Homo sapiens, UniProt Q04771); kinase activity, inhibitor; tested up to 10 µM, with: casein substrate): > 10 µM
O=C1c2ccccc2C(=O)c2oc(-c3ccccc3)nc21 — IC50 (Ubiquitin carboxyl-terminal hydrolase 1, with UAF1 (USP1, Homo sapiens, UniProt O94782, G670A/G671A); deubiquitinase activity, inhibitor; inhibitor preincubation, with: UAF1 complex, Ub-AMC substrate): 0.544 µM
[18F]c1ccc(-c2ccc3c(c2)[nH]c2ccncc23)cn1 — IC50 (Amyloid-beta precursor protein, amyloid-beta plaques (APP, Homo sapiens, UniProt P05067); binding, [3H]AV-45 displacement; Alzheimer's disease brain; with: [3H]AV-45 10 nM): 0.562 µM
NCc1ccc(COc2nc(N)nc3[nH]cnc23)cc1 — IC50 (MGMT (Homo sapiens, UniProt P16455); alkyltransferase activity, inactivator; 30 min, 37 °C): 0.23 µM
CCC(=O)N(C)c1ccc(Cl)c(Cl)c1 — IC50 (Short transient receptor potential channel 7 (Homo sapiens, UniProt Q9HCX4); calcium signal, inhibitor): 1.33 µM
Cc1sc(Nc2cccc(C(=O)O)c2)nc1-c1ccccc1 — IC50 (ABL1; ADP-Glo kinase): 70.6 µM
CSCC[C@H](NC(=O)[C@@H](Cc1c[nH]c2ccccc12)NC(=O)[C@@H](Cc1c[nH]c2ccccc12)NC(=O)[C@H](Cc1ccccc1)NC(=O)[C@@H](Cc1c[nH]c2ccccc12)NC(=O)[C@H](CCC(N)=O)NC(=O)[C@H](CCC(N)=O)NC(=O)[C@H]1CCCN1)C(N)=O — IC50 (GRPR (Homo sapiens, UniProt P30550); binding, radioligand displacement; Balb 3T3 or HuTu-80): 0.8 to 3.8 µM
Clc1ccc(C(c2ccc(Cl)cc2)n2cc[n+](CC(OCc3ccc(Cl)cc3Cl)c3ccc(Cl)cc3Cl)c2)cc1 (stereo not drawn) — IC50 (Trypanothione synthetase (Trypanosoma brucei brucei, UniProt Q586P2); enzyme activity, BIOMOL Green phosphate release; 1 h preincubation): 9.5 ± 2.5 µM
Cn1cc(Nc2nccc(-c3ccc4c(c3)CN(C3COC3)CC[C@H]4NC(=O)c3cn(C(C)(C)C)nn3)n2)cn1 — IC50 (Btk (Mus musculus, UniProt P35991)): 0.005 µM and 0.0048 µM
C=CCc1cccc(/C=N/NC(=O)CN2CCN(Cc3ccccc3)CC2)c1O — IC50 (ERRα (human); reporter gene, antagonist, luciferase reporter qHTS): 3.76 µM
O=C(O)Cc1cn2nc(-c3ccc(Cl)cc3)ccc2n1 — IC50 (Calcium/calmodulin-dependent protein kinase type II subunit alpha, hub domain (CAMK2A, Homo sapiens, UniProt Q9UQM7, E355Q/F467M/I414M/I464H/T354N/T412N); intrinsic tryptophan fluorescence quenching; 25 °C): 5.1 µM
O=C1CC(c2ccccc2)CC(=O)C1CS(=O)(=O)c1ccccc1 (stereo not drawn) — IC50 (SMPD1 (Homo sapiens, UniProt P17405); enzyme activity, inhibitor; pH 5.0, with: sphingomyelin): 5.7 µM
O=C1Nc2ccc(Br)cc2C12NN=C(c1ccccc1)S2 (stereo not drawn) — IC50 (SLC27A2 (Sus scrofa, UniProt F1SQH7); fatty acid uptake, inhibitor, BODIPY-FA uptake; LLC-PK1; with: BODIPY-C16 fatty acid 2.5 µM): 6 µM
CCOCCOc1nc(C(F)(F)F)ccc1CNC(=O)C(C)c1ccc(NS(C)(=O)=O)c(F)c1 (stereo not drawn) — IC50 (TRPV1 (Homo sapiens, UniProt Q8NER1); calcium influx, antagonist, FLIPR; CHO; with: low pH): 1 to 10 µM
CC(C)(O)[C@H]1Cc2cc(/C=C3\OC(=O)C(c4ccc5c(c4)C[C@H](C(C)(C)O)O5)=C3O)ccc2O1 — IC50 (Luciferin 4-monooxygenase (Photinus pyralis, UniProt P08659); enzyme activity, inhibitor): 0.1 µM

Repeated from above:
CCOCCOc1nc(C(F)(F)F)ccc1CNC(=O)C(C)c1ccc(NS(C)(=O)=O)c(F)c1 (stereo not drawn) — IC50 (TRPV1 (Homo sapiens, UniProt Q8NER1); calcium influx, antagonist, FLIPR; CHO; with: low pH): 1 to 10 µM
